Results pooled from the literature.
Compare with care: the assays were run in different laboratories.
Organism: Acinetobacter baumannii

Compound | test | system | setting | MIC
C#CCO/N=C(\C(=O)N[C@@H]1C(=O)N(OS(=O)(=O)O)C1(C)C)c1nsc(N)n1 | agar dilution | 16-16 | – | > 64 µg/mL
CCCCCCCCCCCCCCCCCCn1cc(CN(CCC(=O)NCCN(CCC(=O)NCCN(CCC(=O)NCCN(C)C)CCC(=O)NCCN(C)C)CCC(=O)NCCN(CCC(=O)NCCN(C)C)CCC(=O)NCCN(C)C)CCC(=O)NCCN(CCC(=O)NCCN(CCC(=O)NCCN(C)C)CCC(=O)NCCN(C)C)CCC(=O)NCCN(CCC(=O)NCCN(C)C)CCC(=O)NCCN(C)C)nn1 | microbial growth, broth dilution | ATCC17978 | 18 h | 6 µg/mL
C=CCO/N=C(\C(=O)N[C@@H]1C(=O)N(OS(=O)(=O)O)C1(C)C)c1csc(N)n1 | agar dilution | 16-16 | – | 32 µg/mL
CCCCCCCC[N+](C)(C)CCCCCCOc1cc(OCCCCCC[N+](C)(C)CCCCCCCC)cc(OCCCCCC[N+](C)(C)CCCCCCCC)c1.[Br-].[Br-].[Br-] | – | ATCC 17978 | – | 2 µM
C#CCOc1ccc(CN[C@@]2(C)C[C@H](O[C@H]3[C@H](Oc4c5cc6cc4Oc4ccc(cc4Cl)[C@@H](O)[C@@H](NC(=O)[C@@H](CC(C)C)NC)C(=O)N[C@@H](CC(N)=O)C(=O)N[C@H]6C(=O)N[C@H]4C(=O)N[C@H](C(=O)N[C@H](C(=O)NCC(N)=O)c6cc(O)cc(O)c6-c6cc4ccc6O)[C@H](O)c4ccc(c(Cl)c4)O5)O[C@H](CO)[C@@H](O)[C@@H]3O)O[C@@H](C)[C@H]2O)cc1OC | broth microdilution | BAA-747, cation-adjusted Mueller-Hinton broth | 18 to 20 h, 37 °C, 0.002% polysorbate 80 | 128 µg/mL
CC1(C)[C@H](NC(=O)/C(=N\OC2(C(=O)O)CCCCC2)c2csc(N)n2)C(=O)N1OS(=O)(=O)O | agar dilution | 16-16 | – | > 64 µg/mL
COc1ccc2ccc(O)c(/C=N/[C@H]3CCCC[C@H]3/N=C/c3ccc(F)cc3O)c2c1 | bacterial growth, broth microdilution | carbapenem-resistant clinical isolate | – | > 40 µM
CCCCCCCC(=O)N[C@@H](CCN)C(=O)N[C@H](C(=O)N[C@@H](CCN)C(=O)N[C@H]1CCNC(=O)[C@H]([C@@H](C)O)NC(=O)[C@H](CCN)NC(=O)[C@H](CCN)NC(=O)[C@H](CC(C)C)NC(=O)[C@@H](Cc2ccccc2)NC(=O)[C@H](CCN)NC1=O)[C@@H](C)O | broth microdilution | ATCC 17978 | 20 h, 37 °C | 0.25 µg/mL
CCCCCCCCn1cc[n+](CCCCOc2cc(OCCCC[n+]3ccn(CCCCCCCC)c3)cc(OCCCC[n+]3ccn(CCCCCCCC)c3)c2)c1.[Br-].[Br-].[Br-] | – | ATCC 17978 | – | 8 µM
C/C(=C\c1ccc(O)cc1)C(=O)Nc1ccc(C(=O)N[C@@H](Cc2c[nH]nn2)C(=O)Nc2ccc(C(=O)Nc3ccc(C(=O)Nc4ccc(C(=O)O)cc4)cc3)cc2)cc1 | broth microdilution | ciprofloxacin-resistant | – | 1 µg/mL
CCCCCCCC(=O)N[C@@H](CCN)C(=O)N[C@H](C(=O)N[C@@H](CN)C(=O)N[C@H]1CCNC(=O)[C@H]([C@@H](C)O)NC(=O)[C@H](CCN)NC(=O)[C@H](CCN)NC(=O)[C@H]([C@@H](C)O)NC(=O)[C@@H](CC(C)C)NC(=O)[C@H](CCN)NC1=O)[C@@H](C)O | – | ATCC 19606, CAMHB | 20 h, 37 °C | 0.5 µg/mL
COC(=O)CNC(=O)c1ccc(NC(=O)c2[nH]c(C)c(Cl)c2Cl)c(N2CCN(C(=O)OC(C)(C)C)CC2)c1 | microbial growth, broth dilution | ATCC19606 | – | > 32 µg/mL
CC[C@H]1OC(=O)[C@H](C)[C@@H](OC(=O)Cc2c(F)cccc2F)[C@H](C)[C@@H](O[C@@H]2O[C@H](C)C[C@H](N(C)C)[C@H]2O)[C@](C)(OC)C[C@@H](C)C(=O)[C@H](C)[C@@H](O)[C@]1(C)O | – | DSM 30007 | – | 64 µM
CC1(C)C(NC(=O)C(=NOC2(C(=O)O)CCC2)c2csc(N)n2)C(=O)N1OS(=O)(=O)O (centres unmarked) | agar dilution | 16-16 | – | > 64 µg/mL
CC[C@H]1OC(=O)[C@H](C)[C@@H](OC(=O)Cc2c(F)cc([N+](=O)[O-])cc2F)[C@H](C)[C@@H](O[C@@H]2O[C@H](C)C[C@H](N(C)C)[C@H]2O)[C@](C)(OC)C[C@@H](C)C(=O)[C@H](C)[C@@H](O)[C@]1(C)O | – | DSM 30007 | added: colistin sulfate at 0.1 x MIC | 0.25 µM
CC1(C)[C@H](NC(=O)/C(=N\OC2(C(=O)O)CCCC2)c2csc(N)n2)C(=O)N1OS(=O)(=O)O | agar dilution | ATCC 19606 | – | 32 µg/mL

Compound | test | system | setting | MIC
O=[N+]([O-])c1c(Br)c(Cl)c2cccnc2c1O | microbial growth, broth dilution | ATCC19606 | – | 2 µg/mL
CCCCCCCCCCn1cc[n+](CCCCCCCCCCOc2cc(OCCCCCCCCCC[n+]3ccn(CCCCCCCCCC)c3)cc(OCCCCCCCCCC[n+]3ccn(CCCCCCCCCC)c3)c2)c1.[Br-].[Br-].[Br-] | – | ATCC 17978 | – | 125 µM
CC[C@H]1OC(=O)[C@H](C)[C@@H](OC(=O)Cc2ccc([N+](=O)[O-])cc2)[C@H](C)[C@@H](O[C@@H]2O[C@H](C)C[C@H](N(C)C)[C@H]2O)[C@](C)(OC)C[C@@H](C)C(=O)[C@H](C)[C@@H](O)[C@]1(C)O | microbial growth | ATCC19606 | – | > 32 µg/mL
Oc1c(Br)cc(Br)c2nc3c(C(F)(F)F)cc(C(F)(F)F)cc3nc12 | – | 17978 | – | 75 µM
COc1nc(C(=O)Nc2ccc(C(=O)O)c(O)c2OC)ccc1NC(=O)c1ccc(NC(=O)[C@H](Cc2c[nH]nn2)NC(=O)c2ccc(NC(=O)/C(C)=C/c3ccc(O)cc3)cc2)cc1 | broth microdilution | ciprofloxacin-resistant | – | 4 µg/mL
CCCCCCCC(=O)N[C@@H](CCN)C(=O)N[C@H](C(=O)N[C@@H](CN)C(=O)N[C@H]1CCNC(=O)[C@H]([C@@H](C)O)NC(=O)[C@H](CCN)NC(=O)[C@H](CN)NC(=O)[C@H]([C@@H](C)O)NC(=O)[C@@H](CC(C)C)NC(=O)[C@H](CCN)NC1=O)[C@@H](C)O | – | ATCC 17978, CAMHB | 20 h, 37 °C | 4 µg/mL
CCCCCCCC(=O)N[C@@H](CCN)C(=O)N[C@H](C(=O)N[C@@H](CCN)C(=O)N[C@H]1CCNC(=O)[C@H]([C@@H](C)O)NC(=O)[C@H](C)NC(=O)[C@H](CCN)NC(=O)[C@H](CC(C)C)NC(=O)[C@@H](Cc2ccccc2)NC(=O)[C@H](CCN)NC1=O)[C@@H](C)O | CLSI broth microdilution | 5075, CAMHB | 20 h, 37 °C | > 512 µg/mL
CN[C@H](CC(C)C)C(=O)N[C@H]1C(=O)N[C@@H](CC(N)=O)C(=O)N[C@H]2C(=O)N[C@H]3C(=O)N[C@H](C(=O)N[C@H](C(=O)NCc4cn(CC(=O)N[C@H](C(=O)N[C@@H](CCN)C(=O)N[C@H]5CCNC(=O)[C@H]([C@@H](C)O)NC(=O)[C@H](CCN)NC(=O)[C@H](CCN)NC(=O)[C@H](CC(C)C)NC(=O)[C@@H](CC(C)C)NC(=O)[C@H](CCN)NC5=O)[C@@H](C)O)nn4)c4cc(O)cc(O)c4-c4cc3ccc4O)[C@H](O)c3ccc(c(Cl)c3)Oc3cc2cc(c3O[C@@H]2O[C@H](CO)[C@@H](O)[C@H](O)[C@H]2O[C@H]2C[C@](C)(N)[C@H](O)[C@H](C)O2)Oc2ccc(cc2Cl)[C@H]1O | broth microdilution | ATCC 17978, cation-adjusted Mueller-Hinton broth | 18 to 20 h, 37 °C, 0.002% polysorbate 80 | 128 µg/mL
CCCCCCCCCCn1cc[n+](CCCCCCCCOc2cc(OCCCCCCCC[n+]3ccn(CCCCCCCCCC)c3)cc(OCCCCCCCC[n+]3ccn(CCCCCCCCCC)c3)c2)c1.[Br-].[Br-].[Br-] | – | ATCC 17978 | – | 16 µM
COc1ccc2ccc(O)c(/C=N/[C@H]3CCCC[C@H]3/N=C/c3ccc(C)cc3O)c2c1 | bacterial growth, broth microdilution | carbapenem-resistant clinical isolate | – | > 40 µM
CCCCCCCC(=O)N[C@@H](CCN)C(=O)N[C@H](C(=O)N[C@@H](C)C(=O)N[C@H]1CCNC(=O)[C@H]([C@@H](C)O)NC(=O)[C@H](CCN)NC(=O)[C@H](CCN)NC(=O)[C@H](CC(C)C)NC(=O)[C@@H](Cc2ccccc2)NC(=O)[C@H](CCN)NC1=O)[C@@H](C)O | broth microdilution | ATCC 19606 | 20 h, 37 °C | 8 µg/mL
C=CCO/N=C(\C(=O)N[C@@H]1C(=O)N(OS(=O)(=O)O)C1(C)C)c1nsc(N)n1 | agar dilution | ATCC 19606 | – | 16 µg/mL
COc1c(NC(=O)c2ccc(NC(=O)c3ccc(NC(=O)[C@H](Cc4c[nH]nn4)NC(=O)c4ccc(NC(=O)/C(C)=C/c5ccc(O)cc5)cc4)cc3)cc2O)ccc(C(=O)O)c1O | broth microdilution | ciprofloxacin-resistant | – | 8 µg/mL
CC[C@H]1OC(=O)[C@H](C)[C@@H](OC(=O)Cc2ccc3c(c2)OCO3)[C@H](C)[C@@H](O[C@@H]2O[C@H](C)C[C@H](N(C)C)[C@H]2O)[C@](C)(OC)C[C@@H](C)C(=O)[C@H](C)[C@@H](O)[C@]1(C)O | – | DSM 30007 | added: colistin sulfate at 0.5 x MIC | 0.125 µM
CCCCCCCC(=O)N[C@@H](CCN)C(=O)N[C@H](C(=O)N[C@@H](CCN)C(=O)N[C@H]1CCNC(=O)[C@H]([C@@H](C)O)NC(=O)[C@H](CCN)NC(=O)[C@H](CCN)NC(=O)[C@H](CC(C)C)NC(=O)[C@@H](Cc2ccccc2)NC(=O)[C@H](C)NC1=O)[C@@H](C)O | broth microdilution | ATCC 17978 | 20 h, 37 °C | > 512 µg/mL
CCCCCCCC(=O)N[C@@H](CCN)C(=O)N[C@H](C(=O)N[C@@H](CN)C(=O)N[C@H]1CCNC(=O)[C@H]([C@@H](C)O)NC(=O)[C@H](CCN)NC(=O)[C@H](CCN)NC(=O)[C@H]([C@@H](C)O)NC(=O)[C@@H](CC(C)C)NC(=O)[C@H](CN)NC1=O)[C@@H](C)O | – | ATCC 19606, CAMHB | 20 h, 37 °C | 1 µg/mL
